# Published values pooled from the literature.
# Numbers after ± are the reported error.
# TRPV1: Transient receptor potential cation channel subfamily V member 1 (TRPV1, Homo sapiens, UniProt Q8NER1)
# UniProt Q8NER1, sequence (whole entry, looked up): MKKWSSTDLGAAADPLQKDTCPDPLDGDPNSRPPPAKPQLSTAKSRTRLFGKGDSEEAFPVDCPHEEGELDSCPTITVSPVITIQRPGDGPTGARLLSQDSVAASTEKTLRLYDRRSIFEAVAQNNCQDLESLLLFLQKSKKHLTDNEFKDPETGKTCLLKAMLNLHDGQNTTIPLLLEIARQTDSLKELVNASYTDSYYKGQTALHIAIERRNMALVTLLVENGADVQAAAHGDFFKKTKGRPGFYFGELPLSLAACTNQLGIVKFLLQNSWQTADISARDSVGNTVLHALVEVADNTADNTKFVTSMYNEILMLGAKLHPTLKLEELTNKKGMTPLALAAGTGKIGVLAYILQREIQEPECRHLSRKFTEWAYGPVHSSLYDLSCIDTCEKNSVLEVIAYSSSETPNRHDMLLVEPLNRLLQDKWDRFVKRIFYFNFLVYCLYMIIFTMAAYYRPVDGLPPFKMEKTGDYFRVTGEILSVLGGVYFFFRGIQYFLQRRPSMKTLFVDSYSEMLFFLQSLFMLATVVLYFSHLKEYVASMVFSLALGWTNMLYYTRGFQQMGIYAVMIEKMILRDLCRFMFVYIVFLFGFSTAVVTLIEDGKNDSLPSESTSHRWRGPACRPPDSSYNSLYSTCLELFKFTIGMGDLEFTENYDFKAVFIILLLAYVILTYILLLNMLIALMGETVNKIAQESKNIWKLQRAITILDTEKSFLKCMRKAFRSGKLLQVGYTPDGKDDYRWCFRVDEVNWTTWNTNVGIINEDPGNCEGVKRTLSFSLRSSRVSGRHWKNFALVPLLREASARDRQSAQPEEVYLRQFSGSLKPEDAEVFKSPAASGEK
# GABA A receptor alpha-2/beta-2/gamma-2: GABA A receptor alpha-2/beta-2/gamma-2 (Homo sapiens, UniProt P18507+P47869+P47870)
# UniProt P47869, sequence (whole entry, looked up): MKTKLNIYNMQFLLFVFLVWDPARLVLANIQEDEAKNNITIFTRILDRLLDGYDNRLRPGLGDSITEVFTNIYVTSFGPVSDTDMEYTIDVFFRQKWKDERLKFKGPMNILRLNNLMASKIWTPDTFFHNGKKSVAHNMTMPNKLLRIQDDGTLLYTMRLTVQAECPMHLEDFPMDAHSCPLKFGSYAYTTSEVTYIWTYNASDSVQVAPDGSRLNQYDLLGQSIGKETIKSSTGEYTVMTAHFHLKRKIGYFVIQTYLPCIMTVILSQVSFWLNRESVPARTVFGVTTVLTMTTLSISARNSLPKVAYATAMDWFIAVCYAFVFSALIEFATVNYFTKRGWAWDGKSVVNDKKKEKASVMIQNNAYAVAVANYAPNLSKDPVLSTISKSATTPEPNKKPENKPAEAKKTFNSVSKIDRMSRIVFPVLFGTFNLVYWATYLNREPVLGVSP
# UniProt P47870, sequence (whole entry, looked up): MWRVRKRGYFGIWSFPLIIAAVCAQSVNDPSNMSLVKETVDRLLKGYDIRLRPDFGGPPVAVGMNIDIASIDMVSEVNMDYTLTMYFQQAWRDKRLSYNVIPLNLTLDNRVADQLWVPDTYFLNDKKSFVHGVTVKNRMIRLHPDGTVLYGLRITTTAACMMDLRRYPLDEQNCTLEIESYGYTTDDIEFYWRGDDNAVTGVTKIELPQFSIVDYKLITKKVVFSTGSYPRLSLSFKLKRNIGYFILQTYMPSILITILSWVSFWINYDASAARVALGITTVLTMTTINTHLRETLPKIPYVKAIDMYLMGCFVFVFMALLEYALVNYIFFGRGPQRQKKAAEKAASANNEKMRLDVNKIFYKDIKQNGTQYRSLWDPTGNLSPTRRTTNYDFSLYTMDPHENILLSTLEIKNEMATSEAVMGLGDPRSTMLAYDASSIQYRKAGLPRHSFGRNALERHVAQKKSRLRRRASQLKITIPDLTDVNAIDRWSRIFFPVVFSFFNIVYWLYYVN
# UniProt P18507, sequence (whole entry, looked up): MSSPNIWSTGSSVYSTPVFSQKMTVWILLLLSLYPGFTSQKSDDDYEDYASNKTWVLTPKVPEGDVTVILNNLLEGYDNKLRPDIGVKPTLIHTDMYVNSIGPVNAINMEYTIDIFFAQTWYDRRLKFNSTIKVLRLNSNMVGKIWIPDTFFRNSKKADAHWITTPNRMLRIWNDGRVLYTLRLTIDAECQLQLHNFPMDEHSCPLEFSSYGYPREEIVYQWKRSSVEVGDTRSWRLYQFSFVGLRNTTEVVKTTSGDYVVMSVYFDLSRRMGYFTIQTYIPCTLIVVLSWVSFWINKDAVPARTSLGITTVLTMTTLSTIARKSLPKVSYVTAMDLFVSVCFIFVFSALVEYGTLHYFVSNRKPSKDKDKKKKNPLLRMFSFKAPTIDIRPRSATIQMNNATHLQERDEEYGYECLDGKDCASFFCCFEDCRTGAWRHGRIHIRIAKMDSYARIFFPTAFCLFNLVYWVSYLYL
# UniProt P32300, sequence (whole entry, looked up): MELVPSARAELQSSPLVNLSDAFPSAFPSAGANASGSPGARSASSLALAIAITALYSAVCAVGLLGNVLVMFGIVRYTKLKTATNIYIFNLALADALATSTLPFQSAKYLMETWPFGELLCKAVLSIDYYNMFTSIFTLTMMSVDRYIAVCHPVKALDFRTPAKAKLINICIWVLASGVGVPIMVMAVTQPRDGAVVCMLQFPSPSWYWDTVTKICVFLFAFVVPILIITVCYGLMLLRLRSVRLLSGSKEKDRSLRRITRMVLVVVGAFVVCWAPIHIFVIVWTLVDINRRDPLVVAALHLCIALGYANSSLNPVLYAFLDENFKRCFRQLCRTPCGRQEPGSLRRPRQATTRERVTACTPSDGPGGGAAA
# UniProt P20272, sequence (whole entry, looked up): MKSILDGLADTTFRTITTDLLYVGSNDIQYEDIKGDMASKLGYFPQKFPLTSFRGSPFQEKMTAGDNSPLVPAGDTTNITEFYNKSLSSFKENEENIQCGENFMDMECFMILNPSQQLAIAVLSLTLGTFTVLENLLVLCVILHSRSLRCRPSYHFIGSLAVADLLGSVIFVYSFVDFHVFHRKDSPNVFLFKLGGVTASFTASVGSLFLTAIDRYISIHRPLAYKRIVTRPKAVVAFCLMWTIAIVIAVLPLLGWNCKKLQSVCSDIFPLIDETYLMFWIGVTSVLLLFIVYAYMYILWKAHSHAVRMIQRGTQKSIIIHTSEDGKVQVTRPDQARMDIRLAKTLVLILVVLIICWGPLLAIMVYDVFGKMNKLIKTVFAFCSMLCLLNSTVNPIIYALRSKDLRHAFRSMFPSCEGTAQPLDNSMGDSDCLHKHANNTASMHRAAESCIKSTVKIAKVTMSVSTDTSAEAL
# UniProt P47746, sequence (whole entry, looked up): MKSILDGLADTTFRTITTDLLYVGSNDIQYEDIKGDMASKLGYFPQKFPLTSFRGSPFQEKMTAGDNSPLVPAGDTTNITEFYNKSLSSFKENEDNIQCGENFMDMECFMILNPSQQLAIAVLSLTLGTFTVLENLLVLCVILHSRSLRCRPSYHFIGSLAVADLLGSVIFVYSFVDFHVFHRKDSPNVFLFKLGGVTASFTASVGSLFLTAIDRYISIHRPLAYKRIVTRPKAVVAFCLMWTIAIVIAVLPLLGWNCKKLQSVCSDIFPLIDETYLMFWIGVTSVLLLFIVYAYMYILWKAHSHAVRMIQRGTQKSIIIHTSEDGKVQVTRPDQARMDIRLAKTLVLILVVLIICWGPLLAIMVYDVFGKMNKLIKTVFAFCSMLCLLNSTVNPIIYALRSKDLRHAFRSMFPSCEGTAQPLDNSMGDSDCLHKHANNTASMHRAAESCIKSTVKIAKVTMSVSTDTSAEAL
# UniProt O14764, sequence (whole entry, looked up): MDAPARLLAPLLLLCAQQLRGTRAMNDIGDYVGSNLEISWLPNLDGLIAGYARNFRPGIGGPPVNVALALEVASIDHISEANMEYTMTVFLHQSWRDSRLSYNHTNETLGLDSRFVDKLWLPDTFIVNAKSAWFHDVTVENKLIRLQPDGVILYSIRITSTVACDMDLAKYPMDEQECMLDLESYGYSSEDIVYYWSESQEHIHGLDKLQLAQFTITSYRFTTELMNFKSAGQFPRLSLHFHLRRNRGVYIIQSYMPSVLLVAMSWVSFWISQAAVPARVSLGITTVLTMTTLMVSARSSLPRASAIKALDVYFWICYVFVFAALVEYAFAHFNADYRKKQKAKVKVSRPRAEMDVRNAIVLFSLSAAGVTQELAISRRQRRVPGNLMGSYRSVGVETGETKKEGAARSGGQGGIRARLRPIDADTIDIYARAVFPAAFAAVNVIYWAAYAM
# UniProt Q96RJ0, sequence (whole entry, looked up): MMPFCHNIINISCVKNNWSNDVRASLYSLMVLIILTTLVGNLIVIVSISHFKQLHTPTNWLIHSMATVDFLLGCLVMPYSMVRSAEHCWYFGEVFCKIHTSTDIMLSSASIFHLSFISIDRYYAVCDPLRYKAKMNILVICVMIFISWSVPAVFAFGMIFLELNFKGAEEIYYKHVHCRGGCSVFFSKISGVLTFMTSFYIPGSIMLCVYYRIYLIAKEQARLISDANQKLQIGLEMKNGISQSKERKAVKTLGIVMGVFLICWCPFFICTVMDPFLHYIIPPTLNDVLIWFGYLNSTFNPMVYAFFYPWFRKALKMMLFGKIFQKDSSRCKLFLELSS
# UniProt P18508, sequence (whole entry, unmodified, looked up): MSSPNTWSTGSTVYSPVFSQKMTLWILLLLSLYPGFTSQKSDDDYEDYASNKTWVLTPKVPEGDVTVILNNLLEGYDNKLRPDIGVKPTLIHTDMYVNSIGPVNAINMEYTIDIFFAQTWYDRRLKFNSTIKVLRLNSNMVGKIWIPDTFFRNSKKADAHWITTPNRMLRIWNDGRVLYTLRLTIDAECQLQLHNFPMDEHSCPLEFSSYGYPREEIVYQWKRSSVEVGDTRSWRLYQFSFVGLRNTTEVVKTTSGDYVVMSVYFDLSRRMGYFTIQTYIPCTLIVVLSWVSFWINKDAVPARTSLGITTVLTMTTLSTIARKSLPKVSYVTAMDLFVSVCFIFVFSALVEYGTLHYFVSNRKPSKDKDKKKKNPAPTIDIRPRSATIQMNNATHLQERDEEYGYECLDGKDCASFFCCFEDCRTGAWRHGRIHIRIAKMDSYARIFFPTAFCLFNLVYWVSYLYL
SMILES,target,test,test system,setting,EC50
CN(C(=O)/C=C/c1ccoc1)[C@@H]1CC[C@@]2(O)[C@H]3Cc4cccc5c4[C@@]2(CCN3CC2CC2)[C@H]1O5,"Oprd1 (Mus musculus, UniProt P32300)",agonist,CHO cell membranes,together with: 50 mM NaCl,334 ± 35.1 nM
C[C@]12C=CC3=C4CCC(=O)C=C4CCC3C1CC[C@@H]2O (stereo partly shown),"Androgen receptor, ligand-binding domain (Ar, Rattus norvegicus, UniProt P15207)","reporter gene, agonist, β-lactamase reporter qHTS",Ar-bla cells,,2.97 nM
C[C@]12CC[C@@H](O)C[C@@H]1CC[C@@H]1[C@@H]2CC[C@]2(C)[C@@H](C(=O)CO)CC[C@@H]12,"Gabrb1/Gabrg2/Gabra1 (Rattus norvegicus, UniProt P15431+P18508+P62813, S325C)","ion current, agonist, two-electrode voltage clamp",Xenopus oocytes,second activation phase,41 nM
CC1=CC[C@@H]2[C@@H](C1)c1c(O)cc(CC#CCCCNS(C)(=O)=O)cc1OC2(C)C,"Cnr1 (Rattus norvegicus, UniProt P20272)","GTPγS binding, agonist, radiometric",,cell membranes,0.09 nM
CC(Cc1ccc2c(c1)OCO2)NCC(O)c1ccc(O)c(O)c1 (stereo not shown),"Beta-2 adrenergic receptor, V2R C-tail chimera (ADRB2, Homo sapiens, UniProt P07550)",agonist,,concentration not given,5.01 nM
CCCCCn1cc(C(=O)C2C(C)(C)C2(C)C)c2ccccc21,TRPV1,"calcium signal, agonist, fluorescence",,,7900 nM
C[C@@]1(O)CC[C@H]2[C@H](CC[C@@H]3[C@@H]2CC[C@]2(C)[C@@H](C(=O)Cn4cc(C#N)cn4)CC[C@@H]32)C1,GABA A receptor alpha-2/beta-2/gamma-2,"GABA current potentiation, positive modulator, two-electrode voltage clamp",Xenopus laevis oocytes,"30 s preincubation, together with: GABA EC10",380 ± 60 nM
CCCCn1cc(C(=O)c2cccc3ccccc23)c2c(O)cccc21,"Cnr1 (Mus musculus, UniProt P47746)","GTPγS binding, agonist",,cell membranes,113 nM
CC(=O)[C@H]1CC[C@H]2[C@@H]3CC[C@H]4C[C@H](O)CC[C@]4(C)[C@H]3CC[C@]12C,GABA A receptor alpha-2/beta-2/gamma-2,"GABA current potentiation, positive modulator, two-electrode voltage clamp",Xenopus laevis oocytes,"30 s preincubation, together with: GABA EC10",110 ± 40 nM
NCCc1ccccc1,"TAAR1 (Homo sapiens, UniProt Q96RJ0)","cAMP, agonist",,,193 nM
C[C@H](N)Cc1cccc(C(F)(F)F)c1,"HTR2B (Homo sapiens, UniProt P41595)","Gq dissociation, agonist, BRET",,"60 min, 37 °C",6.78 nM
CC(=O)[C@H]1CC[C@H]2[C@@H]3CC[C@H]4C[C@](C)(O)CC[C@]4(C)[C@H]3CC[C@]12C,"Gamma-aminobutyric acid receptor subunit alpha-4/beta3/delta (Homo sapiens, UniProt O14764+P28472+P48169)","GABA current potentiation, positive modulator, two-electrode voltage clamp",Xenopus laevis oocytes,"30 s preincubation, together with: GABA EC10",250 ± 60 nM
CN1CCCCC1Cn1cc(C(=O)c2cccc3ccccc23)c2ccccc21 (stereo not shown),TRPV1,"calcium signal, agonist, fluorescence",,,6800 nM

# Repeated from above:
SMILES,target,test,test system,setting,EC50
CC1=CC[C@@H]2[C@@H](C1)c1c(O)cc(CC#CCCCNS(C)(=O)=O)cc1OC2(C)C,"Cnr1 (Rattus norvegicus, UniProt P20272)","GTPγS binding, agonist, radiometric",,cell membranes,0.09 nM
CC(Cc1ccc2c(c1)OCO2)NCC(O)c1ccc(O)c(O)c1 (stereo not shown),"Beta-2 adrenergic receptor, V2R C-tail chimera (ADRB2, Homo sapiens, UniProt P07550)",agonist,,concentration not given,5.01 nM
